Published values from different studies.
Parts stem from different laboratories: compare values within a part only.

Series 1 — method: protein binding microarray; molecule type: double-stranded DNA, one strand shown; medium: in vitro; tested at: not given; baseline: not given; reading: higher = stronger binding; endpoint: E-score
Target: Histone acetyltransferase KAT6A, winged helix 2, GST fusion (KAT6A, Homo sapiens, UniProt Q92794, residues 85-181)
Setting: 8-mer, flanks averaged, mean of 2 arrays, mostly near background
Target sequence (chain): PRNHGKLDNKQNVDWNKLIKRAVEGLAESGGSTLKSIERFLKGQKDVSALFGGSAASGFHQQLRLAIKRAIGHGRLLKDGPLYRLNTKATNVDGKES
CCCCTAGA: -0.154
ATCCGAAT: 0.0879
GCCACCCC: 0.0343
CTAGTGTA: -0.212
AGTTATAC: 0.0298
GATAGTAA: 0.0657
CGAAGTGA: 0.125
TACACATA: -0.275
ATCGTGTC: -0.078
GAGTTACA: 0.0678
AGTCGACC: 0.0879
AAAGCAAA: 0.132
CCGAGTAA: -0.00197
CGCGCTCC: 0.231
AGTTTAAG: 0.0464
CATCTTAG: 0.0194
GCGGCTTA: 0.0991

Series 2 — method: competition protein-binding microarray; molecule type: double-stranded DNA, one strand shown; medium: in vitro; tested at: 2 µM; together with: Cbf1 competitor, 0.05 µM; reading: higher = stronger binding; endpoint: fluorescence intensity
Target: Phosphate system positive regulatory protein PHO4, full length, GST-tagged (PHO4, Saccharomyces cerevisiae, UniProt P07270, residues 1-312)
Setting: whole 60-bp probe, lowest competitor level
Residues (chain): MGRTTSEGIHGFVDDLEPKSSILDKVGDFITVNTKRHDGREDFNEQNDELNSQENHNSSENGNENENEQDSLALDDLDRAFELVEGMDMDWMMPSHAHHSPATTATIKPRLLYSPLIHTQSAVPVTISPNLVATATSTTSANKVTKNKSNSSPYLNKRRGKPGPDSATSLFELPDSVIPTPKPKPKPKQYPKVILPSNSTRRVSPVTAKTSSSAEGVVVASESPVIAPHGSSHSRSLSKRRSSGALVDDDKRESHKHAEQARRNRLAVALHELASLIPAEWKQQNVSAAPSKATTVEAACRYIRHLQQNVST
AGAATAGTTACGGATCAGGTGATGAGACGATAAAAAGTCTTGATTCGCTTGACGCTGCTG: 3780 a.u.
CTTCTGTAAATTTTTCACGTGTCTTGACGCGCCCCGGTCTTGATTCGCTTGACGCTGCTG: 12700 a.u.
TCGACACACCCGCCGCATGTGCGACAATTTCTTCGGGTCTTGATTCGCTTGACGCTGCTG: 11600 a.u.
GGCCAAAGTGTTCGTCACAAAACAGTGGTCCTATATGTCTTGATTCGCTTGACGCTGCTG: 2980 a.u.
AGAAGAGACGCAGCAAGCGTGGGTAAATGATAATGAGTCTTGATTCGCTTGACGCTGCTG: 7150 a.u.
AATTCCTTATGCGGGCCCGGTCAGAACGGATTATAGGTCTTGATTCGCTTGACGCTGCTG: 3630 a.u.
AAAGCGGTAATTTGCTCTGTGGGTGCAGATATCTATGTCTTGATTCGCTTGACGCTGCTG: 4070 a.u.
TGCGCAACAACTTGGAGCGTGGGTGTATGTCTAGAAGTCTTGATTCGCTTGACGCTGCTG: 8090 a.u.
ATGGGCCACTCTTTTCACGTGAAGCGCTCCAGGAAAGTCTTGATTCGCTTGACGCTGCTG: 8790 a.u.
AATGGGTATGGCAGCACCGTGATGGAACAACCATTTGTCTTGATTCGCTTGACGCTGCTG: 6660 a.u.
CCCAAGCGCTAGCATCACAAACGGCGAACTTCCCATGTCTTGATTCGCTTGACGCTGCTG: 2920 a.u.
GGCTCGCTAGGCGGCTACATGACAAAATGCCCAAGTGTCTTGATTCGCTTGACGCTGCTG: 3770 a.u.
CGGGGTTAAGTTTGCCCCGTGGGTGGCTTGCAGCAGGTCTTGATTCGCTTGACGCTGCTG: 11300 a.u.
CTTCTGTAAATTTTGCACGTGTTTTGACGCGCCCCGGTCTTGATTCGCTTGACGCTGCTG: 17900 a.u.
TTGCGCAGGGCGAGCCAGATGAACGCTCTAGTCGTCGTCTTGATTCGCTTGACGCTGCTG: 2710 a.u.
CTTCTGTAAATTTGTCACCAAACTTGACGCGCCCCGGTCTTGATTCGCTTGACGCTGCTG: 3520 a.u.
GGTGTCCATCCCCGTCACATGGTGCAGTACTTCCTTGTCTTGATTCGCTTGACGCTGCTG: 10200 a.u.
CCAGACCGTTTAGGCCATGTGCGGATTGTACTTGTTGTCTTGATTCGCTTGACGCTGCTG: 10500 a.u.
CAAAAACTAAACTGGCACGCTAGAGAAAAGTAGTCAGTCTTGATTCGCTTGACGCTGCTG: 6810 a.u.
CGCGCGCGGCCGGGCCATGTGAAGATTTTAACGGGCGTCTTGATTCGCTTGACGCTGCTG: 4620 a.u.
CAACTTCTTTTATTGCACGTACCTTTTGGACTGGTTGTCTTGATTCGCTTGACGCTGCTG: 7500 a.u.
CAGTTAATTTTGGATCTCGTGACGGGTAATCTTCTTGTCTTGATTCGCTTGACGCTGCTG: 7040 a.u.

Series 3 — target: UBE2R2 UBC core domain (UniProt Q712K3); method: yeast two-hybrid; medium: yeast; setting: mostly zero background; baseline: not given; reading: higher = stronger interaction; endpoint: lacZ reporter activity
UniProt Q712K3, sequence (whole entry, looked up): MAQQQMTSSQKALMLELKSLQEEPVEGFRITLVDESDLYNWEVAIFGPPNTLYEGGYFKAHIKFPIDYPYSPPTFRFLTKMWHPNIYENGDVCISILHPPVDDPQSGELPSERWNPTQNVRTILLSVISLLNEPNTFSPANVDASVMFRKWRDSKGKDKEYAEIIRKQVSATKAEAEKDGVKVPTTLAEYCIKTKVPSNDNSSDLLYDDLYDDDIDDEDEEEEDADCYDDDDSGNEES
B1: RNF7 RING domain (UniProt Q9UBF6); chain AICRVQVMDACLRCQAENKQEDCVVVWGECNHSFHNCCMSLWVKQNNRCPLCQQDWVVQRIGK
B2: TRIM2 RING domain (UniProt Q9C040); chain VRQIDKQFLICSICLERYKNPKVLPCLHTFCERCLQNYIPAHSLTLSCPVCRQTSILPEKGV
B3: SHPRH RING domain (UniProt Q149N8); chain KTSGGVNPEPCPICARQLGKQWAVLTCGHCFCNECISIIIEQYSVGSHRSSIKCAICRQTTSHKEISY
B4: RNF11 RING domain (UniProt Q9Y3C5); chain RDGSEKKIRECVICMMDFVYGDPIRFLPCMHIYHLDCIDDWLMRSFTCPSCMEPVDAALLSS
B5: MARCHF2 RING domain (UniProt Q9P0N8); chain RLLSTVIRALDTPSDGPFCRICHEGANGECLLSPCGCTGTLGAVHKSCLEKWLSSSNTSYCELCHTEFAVEKRPRPLTEWL
B6: TRIM34 RING domain (UniProt Q9BYJ4); chain ILLNVQEEVTCPICLELLTEPLSLDCGHSLCRACITVSNKEAVTSMGGKSSCPVCGISYSFEHLQA
B7: UBE4B RING domain (UniProt O95155); chain KNARAEIDYSDAPDEFRDPLMDTLMTDPVRLPSGTIMDRSIILRHLLNSPTDPFNRQTLTESMLEPVPELKEQIQAWMREKQNSDH
B8: RFPL3 RING domain (UniProt O75679); chain MAALFQEASSCPVCSDYLEKPMSLECGCTVCLKCINSLQKEPHGEDLLCCCCSMVSQRNKIRP
B9: RMND5B RING domain (UniProt Q96G75); chain MKCWYHSVFACPILRQQTSDSNPPIKLICGHVISRDALNKLINGGKLKCPYCPMEQNPADGK
B10: TRIM47 RING domain (UniProt Q96LD4); chain MDGSGPFSCPICLEPLREPVTLPCGHNFCLACLGALWPHRGASGAGGPGGAARCPLCQEPFPDGLQLR
B1 (RNF7 RING domain): 0
B2 (TRIM2 RING domain): 0
B3 (SHPRH RING domain): 0
B4 (RNF11 RING domain): 0
B5 (MARCHF2 RING domain): 0
GSEEEEIPFRCFICRQAFQNPVVTKCRHYFCESCALEHFRATPRCYICDQPTGGIFNPA (RNF113B RING domain (UniProt Q8IZP6)): 0
VPADASPDSKCPICLDRFDNVSYLDRCLHKFCFRCVQEWSKNKAECPLCKQPFDSIFHSV (TOPORS RING domain (UniProt Q9NS56)): 0
B6 (TRIM34 RING domain): 0
PLRRLQEEKLCKICMDRHIAVVFIPCGHLVTCKQCAEAVDRCPMCSAVIDFKQRVF (BIRC8 RING domain (UniProt Q96P09)): 0
B7 (UBE4B RING domain): 0
B8 (RFPL3 RING domain): 0
B9 (RMND5B RING domain): 0
B10 (TRIM47 RING domain): 0

Series 4 — method: RNA Bind-n-Seq; molecule type: RNA; medium: in vitro; tested at: 365 nM; baseline: no-protein control; reading: higher = stronger binding; endpoint: RBNS enrichment (R)
Target: RNA binding protein fox-1 homolog 2, RRM domain, GST-SBP tag (RBFOX2, Homo sapiens, UniProt O43251-10, residues 100-194)
Setting: natural RNA segment, single round, ends assumed
Target sequence (chain): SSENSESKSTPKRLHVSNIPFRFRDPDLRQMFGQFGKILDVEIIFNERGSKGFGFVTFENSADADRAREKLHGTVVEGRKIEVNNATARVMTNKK
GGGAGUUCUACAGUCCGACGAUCAAAGUUUUAUUUUUCUAAAAAAAGAAAAAAGAAGAAAAAAUUUAAAGGGUGUACUUAUAUCCACACUGCACACUGCCUGGCCCAAAACGUCUUAUUGUGGUAGGAUCAGCUGGAAUUCUCGGGUGCCAA: 2.35
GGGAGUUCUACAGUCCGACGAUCACUCCGACCUUUUUCUUUGAACAUGCAUGCUGCUGGAAUAUGUAUAAAUCAGAACUAGCAGAAGUAGCAGAGUGAUGGGAGCAAAAUAGGCACUGAAUUCGUCAACUCUUUGGAAUUCUCGGGUGCCAA: 0.497
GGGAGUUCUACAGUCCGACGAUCCUGCCAGAAGUUCAUGGUCAGAUACUGUGACUAUCACUAUCUUGUUUCUGUGAUUGUCAUUAAAAAAAAAUUUACUGUUGUGAUAAGAAUUUUAUUUGUUUUGUUUAAAGUGGAAUUCUCGGGUGCCAA: 0.888
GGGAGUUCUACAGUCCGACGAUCUUAAUCAUUUCUUCUUUGUUUUGUGGUAAAGGGGAAAAAUUAAAAACCAGUUGGAACCCUUUUGUCUACUUUCUUUGUUAACUCUGAGUUUAUGAAUCUAACUAGUGACCUGGAAUUCUCGGGUGCCAA: 0.61
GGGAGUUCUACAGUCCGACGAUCUGUGCACGUGCUUCAGACUCAUUUGCGAGGGAAUGCUUUCUGUAUGAGAGGGAGACGGUAGGCCUUACCACUCAGACCUGGACGUAUAAGUGCUCACUUUUCCAACACAUUGGAAUUCUCGGGUGCCAA: 1.41
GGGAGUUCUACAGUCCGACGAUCAUGGAUAAUUGCUUCACAGCCUUGGCCAUCCUGGCUCAGCUCUCAAUUUAGUAUAAUAUGCAGUUCCUGUGCCUCCAGACUAUGCAGCUCAUCACCCUAGGUUCUACAGGUGGAAUUCUCGGGUGCCAA: 0.25
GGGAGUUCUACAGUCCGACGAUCAAUAUCUGUCAUGAACCUGCCAAUUUGUACGUGUUAAGCAGCUGACAGAUGAUGCAAAAAAAACUAAGAUACACUGGAUUGUACUGGAUGAGUCUGAAAUUAGUGUUAAAUGGAAUUCUCGGGUGCCAA: 6.01
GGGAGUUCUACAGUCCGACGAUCGGACCUUUGAACUUGCCAGAUACCUUAAGUGUCUUCCCAGAAUCUGCCCACCUGUCAUCAGCCCCCCAGCCCCCCACCACUCAGGGACACUCUGCUAAUAGACACAAGCUUGGAAUUCUCGGGUGCCAA: 0.424
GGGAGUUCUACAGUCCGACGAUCAAUGAGUCAGACCUGUACUACUGAUUAUUAAGCAGGACAGACUGAGCUUUCUGCAAAUAGCUUGAAGGAGGAAACAAUUUCUGAACACACAAGUAGCACCGUGUCGCCUCUGGAAUUCUCGGGUGCCAA: 0.428
